Published values gathered from unrelated publications.
Every numbered part comes from another study and shows a few of its results, in no order.

Study 1
Target: Sal-like protein 4, full length isoform B (SALL4, Homo sapiens, UniProt Q9UJQ4-2, residues 1-616)
Method: universal PBM
Molecule type: double-stranded DNA, one strand shown
Sample: in vitro
Tested at: not given
Setting: 8-mer, flanks averaged, mean of replicates
Reading: higher = stronger binding
Target sequence (chain): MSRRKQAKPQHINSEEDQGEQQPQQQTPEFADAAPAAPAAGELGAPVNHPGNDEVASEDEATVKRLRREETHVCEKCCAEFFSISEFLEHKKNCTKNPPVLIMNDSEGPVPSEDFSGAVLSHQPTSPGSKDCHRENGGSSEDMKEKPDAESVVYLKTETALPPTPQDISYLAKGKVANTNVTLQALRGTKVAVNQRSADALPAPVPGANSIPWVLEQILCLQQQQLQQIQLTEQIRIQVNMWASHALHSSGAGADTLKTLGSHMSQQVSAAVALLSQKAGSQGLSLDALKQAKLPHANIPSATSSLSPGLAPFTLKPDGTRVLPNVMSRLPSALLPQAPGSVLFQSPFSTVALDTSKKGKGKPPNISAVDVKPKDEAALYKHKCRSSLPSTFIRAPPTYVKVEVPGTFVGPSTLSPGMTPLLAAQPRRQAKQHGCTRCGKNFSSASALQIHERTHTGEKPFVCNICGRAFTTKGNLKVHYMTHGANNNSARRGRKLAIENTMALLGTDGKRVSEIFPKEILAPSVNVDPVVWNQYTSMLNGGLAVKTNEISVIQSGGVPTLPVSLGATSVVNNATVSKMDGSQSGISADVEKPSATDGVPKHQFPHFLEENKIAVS
Oligonucleotide	E-score
AAGCGAGG	-0.105
ACGCCCAC	-0.17
GAATTCCC	-0.131
AACGTTCG	-0.0908
GCACCCTA	-0.0728
ACAAGACC	-0.0896
CATTCGAG	-0.0194
GGAGGTCA	-0.127
CAGGATTC	0.0721
CGGAGCCA	-0.311

Study 2
Target: PABPC1L2, full length, GST fusion (mouse, UniProt A0ABA7IW68)
Method: RNAcompete
Molecule type: RNA
Sample: in vitro
Tested at: 20 nM
Setting: 7-mer, probes averaged, single round
Baseline: mean of 7-mers
Reading: higher = stronger binding
Target sequence (chain): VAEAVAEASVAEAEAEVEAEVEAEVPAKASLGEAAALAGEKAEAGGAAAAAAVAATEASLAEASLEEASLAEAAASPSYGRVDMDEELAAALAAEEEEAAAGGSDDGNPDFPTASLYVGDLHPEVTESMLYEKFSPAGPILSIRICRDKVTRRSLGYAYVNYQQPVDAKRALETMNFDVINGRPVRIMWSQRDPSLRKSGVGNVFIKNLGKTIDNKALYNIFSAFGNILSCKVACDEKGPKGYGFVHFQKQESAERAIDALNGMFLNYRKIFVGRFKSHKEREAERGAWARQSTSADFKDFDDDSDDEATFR
Oligonucleotide	7-mer Z-score
AUACGCC	-0.284
AGUUUGU	-0.344
ACGUCCU	-0.237
GCAGCAA	0.106
CAAGCAA	0.0859
AGCCCUC	-0.331
CGUGCUA	-0.0718

Study 3
Target: Histone acetyltransferase KAT6A, winged helix 1, GST fusion (KAT6A, Homo sapiens, UniProt Q92794, residues 1-85)
Method: protein binding microarray
Molecule type: double-stranded DNA, one strand shown
Sample: in vitro
Tested at: not given
Setting: 8-mer, flanks averaged, mean of 2 arrays, mostly near background
Baseline: not given
Reading: higher = stronger binding
Target sequence (chain): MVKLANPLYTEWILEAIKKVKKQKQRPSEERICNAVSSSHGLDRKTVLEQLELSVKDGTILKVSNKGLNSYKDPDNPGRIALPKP
Oligonucleotide	E-score
CACCCCTG	-0.16
CCGGACCC	0.202
CTCGCGCA	0.357
AATAGTGT	-0.0157
ATCTGCCA	-0.17
CAAATTTG	-0.186
CAGAAATC	-0.183

Other studies, line by line
Substance	target	assay	system	setting	how to read	measurement	value
PhoQ, residues 284 288 289 292 302 303 SASVAL	PhoP, residues 12 14 15 18 19 LQHIR (Escherichia coli, UniProt P23836)	Sort-seq, item: YFP reporter	E. coli	PhoQ-PhoP variant library, together with: 10 µM Mg2+	baseline: high Mg2+ state, higher = stronger signaling	fold induction	3.07

A few entries again (study 1):
Oligonucleotide	E-score
AAGCGAGG	-0.105
ACGCCCAC	-0.17
GAATTCCC	-0.131
